Results from different studies.
Every numbered part comes from another study and shows a few of its results, in no order. Substitutions count along the parent as printed.

Study 1 — target: CCNE2, cyclin fold, Cln2 fusion (human); technique: yeast growth competition, sequencing; medium: yeast; notes: weak parent motif; reference: not given; reading: higher = stronger binding
Starting sequence: SAMHD1 docking peptide (human); ASKSRVQLFKDDP
Variant | normalised enrichment score
ASHSRVQLFKDDP [K3H] | 0.234
ASKSRVQNFKDDP [L8N] | -0.0397
ASKQRVQLFKDDP [S4Q] | 0.0823
ASKSSVQLFKDDP [R5S] | -0.2
ASKSRVQLLKDDP [F9L] | 0.39
ASQSRVQLFKDDP [K3Q] | -0.0629
ASKIRVQLFKDDP [S4I] | 0.803
ASKSRVQLFKDKP [D12K] | 0.329
ASKSRVYLFKDDP [Q7Y] | 0.328
ASKSRVQLFKWDP [D11W] | -0.142
ASKSRVFLFKDDP [Q7F] | 0.393
ASKSRVQLKKDDP [F9K] | 0.122
ASKSRVQLFKDAP [D12A] | 0.325
ASKSRVQLHKDDP [F9H] | 0.0892
ASKSRVQLFKDWP [D12W] | 0.574
ASKSNVQLFKDDP [R5N] | -0.468
ASKSRVQLFKDYP [D12Y] | 0.88
AAKSRVQLFKDDP [S2A] | 0.257

Study 2 — target: CREB3L3, bZIP domain (human); technique: DHFR protein complementation; medium: yeast; reference: wild-type JUN-FOS pair; reading: higher = stronger binding
Notes: single substitutions, most at no-binding floor
Starting sequence: JUN, bZIP domain (human); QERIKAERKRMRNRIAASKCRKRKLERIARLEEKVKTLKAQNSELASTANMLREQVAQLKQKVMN; partner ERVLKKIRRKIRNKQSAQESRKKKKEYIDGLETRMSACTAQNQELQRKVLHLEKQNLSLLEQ
Variant | binding fitness
E44T | -1.47 natural log
N42Q | -1.46 natural log
E33N | -1.46 natural log
R53G | -1.52 natural log
E54T | -1.49 natural log
T37C | -1.38 natural log
V56S | -1.5 natural log
S43Q | -1.49 natural log
A46V | -1.46 natural log
E54A | -1.45 natural log
N42C | -1.53 natural log
E32C | -1.45 natural log
K36W | -1.44 natural log
V56Q | -1.47 natural log
N42F | -1.52 natural log
L59S | -1.41 natural log
A40K | -1.39 natural log
T48L | -1.39 natural log
E32H | -1.51 natural log
L52D | -1.56 natural log
A46N | -1.45 natural log

Study 3 — technique: protein-binding microarray; molecule type: double-stranded DNA, one strand shown; medium: in vitro; tested at: 940 nM top; notes: 60-bp whole probe; added: salmon DNA 0.4 mg/ml; reference: random background probes; reading: higher = stronger binding; constant ends, left off below: GCCTAGCAC … GTCTTGATTCGCTTGACGCTGCTG
Target: Interferon regulatory factor 5, full length, phosphomimetic (IRF5, Homo sapiens, UniProt Q13568-2, residues 1-514, S451D/S453D/S456D/S462D)
Strand | fitted relative affinity [z-score]
AACGATTTCAGACTGGAGACGTGCTAG | -0.326
TCACATATAATTTTGTCATCGTGCTAG | 0.635
GACGGTATCCTTCTCATGACGTGCTAG | 0.758
GACGGACTGGACACCGGGGACGTGCTA | -0.683
GTCATTTACATTTTAGTAGTGTGCTAG | 0.322
TGGTATTTTTTTCTAATTGAGTGCTAG | 1.2
AACGGTTTCCTTTTCCTGACGTGCTAG | 2.02
GTAGGTATCGACTATCGGTTAGTGCTA | 5.41
GACGAACTGGGGTATCGCGACGTGCTA | -0.0788
GACGATATCACTTTCGAGACGTGCTAG | 2.12
TCATGTCTGGGCTTTTTCACTGTGCTA | -0.34
TTCGGTATCGACTATCGGTTAGTGCTA | 5.9
GACGGACTGGGTCTAGGGACGTGCTAG | -0.803
TCAAGTATGTTCACTATTACTGTGCTA | -0.0675
TTAGATTTCCTTTCCCTTTAGTGCTAG | 1.32
GTGACAGTTTTATTTTAGTTGGTGCTA | 0.614
CTGCAGGTAGCAGAGACTTGGTGCTAG | -0.601
TTAGGTCTAGGTCTCGGTTAGTGCTAG | 1.39

Study 4 — technique: RNAcompete; molecule type: RNA; medium: in vitro; tested at: 20 nM; notes: 7-mer, probes averaged, single round; reference: mean of 7-mers; reading: higher = stronger binding
Target: PABPC1L2, full length, GST fusion (mouse, UniProt A0ABA7IW68)
Construct (chain): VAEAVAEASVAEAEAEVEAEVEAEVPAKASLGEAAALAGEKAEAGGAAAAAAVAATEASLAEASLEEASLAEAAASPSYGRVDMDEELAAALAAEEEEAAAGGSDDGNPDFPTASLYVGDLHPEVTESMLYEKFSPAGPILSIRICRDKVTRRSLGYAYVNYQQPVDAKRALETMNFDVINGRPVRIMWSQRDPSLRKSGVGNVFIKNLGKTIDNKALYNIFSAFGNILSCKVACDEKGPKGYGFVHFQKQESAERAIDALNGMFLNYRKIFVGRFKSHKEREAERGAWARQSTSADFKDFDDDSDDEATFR
Strand | 7-mer Z-score
CAGGCUG | -0.0627
AUUGAGU | -0.242
UUCCCCA | -0.38
UGUGUGG | -0.208
GAAGUCC | -0.18
UGGUAGC | -0.155
UAGACGG | 0.0442
GUACUGG | -0.0482
AUUCGUA | -0.353
CGGAACC | -0.00833
AAAAAGA | 22.6
GCGCGCA | -0.295
CGAGCCG | -0.0953
GUACCAU | -0.209
UGCAUGA | 0.0134
CUUAUGG | -0.222
ACAUCGU | -0.155
AUCCUCC | -0.365
UGGGUAG | -0.0718
CCCAAGU | -0.295
GGGGCCG | 0.0642
GCCUAAC | -0.257

Study 5 — technique: RNA Bind-n-Seq; molecule type: RNA; medium: in vitro; tested at: 20 nM; notes: 6-mer, flanks averaged, single round; added: 150 mM LiCl; reference: input library; reading: higher = stronger binding
Target: TAR DNA-binding protein 43, full length, His tag (TARDBP, Homo sapiens, UniProt Q13148, residues 1-414)
Strand | 6-mer enrichment (R)
GACUAA | 0.87
GAUUUA | 0.922
GCUCAG | 0.868
GAGCAC | 0.901
GGCCUC | 0.939
CUAACU | 0.857
UCUGAC | 0.838
GACCUU | 0.92
UUUUCG | 1.08
CAAUAU | 0.934
UCCAUU | 0.946
AACUGG | 0.895
CUUGCG | 0.962
ACGGCU | 0.867
UGGAAU | 0.981
GCUCUG | 0.874
GGUGCG | 1.32
GGAGUG | 1.38
AUGAAU | 1.07
CAAAUG | 0.897
UGCAAU | 0.922
ACACGA | 0.799
GUUUAU | 1.23
UUGUCG | 1.04
GAUACA | 0.821
